Experimental data collected from several papers.
Each line is one published result; not all experiments were run side by side. Values joined by “and” are separate records of one study, mostly repeats; a detail may differ. ± gives the spread as reported.
HTR1D: 5-hydroxytryptamine receptor 1D (HTR1D, Homo sapiens, UniProt P28221)
Kcnc1: Voltage-gated potassium channel KCNC1 (Kcnc1, Mus musculus, UniProt P15388)
CGAS: Cyclic GMP-AMP synthase (CGAS, Homo sapiens, UniProt Q8N884)

CC[C@@H]1[C@H](F)C(=O)N[C@@H]1COc1nccc2cc(C(N)=O)c(OC)cc12  inhibition (CDK10 (Homo sapiens, UniProt Q15131); ATP-site probe binding, ActivX profiling; THP-1 cell lysate; 0.01 mM, Lys2 site): 0.5%
Ic1cccc2cnccc12  inhibition (rolipram binding site (rat); radioligand binding, inhibitor; 10 µM): 0%
CN1CCC(CNc2ccc3ncc(-c4cccc(OC(F)(F)F)c4)n3n2)CC1  inhibition (Neuronal acetylcholine receptor; alpha4/beta2 (Homo sapiens, UniProt P17787+P43681); ion channel activity, blocker; 10 µM; relative to: control): > 50%
COc1cc2c3c(c1OC)-c1cc4c(cc1CC3N(C)CC2c1ccccc1)OCO4 (stereo not shown)  inhibition (sigma-1; binding, radioligand binding; concentration not given): < 50%
Cc1ccc(OC[C@H]2CN(CCN3CCc4ccccc43)CCO2)cn1  inhibition (HTR1D; radioligand binding; concentration not given, added: [3H]5-CT): 33.8%
CC1=NN(c2cccc([N+](=O)[O-])c2)C(=O)C1=NNc1ccc(S(N)(=O)=O)cc1  inhibition (bovine α-glucosidase; enzyme activity, inhibitor, glucose oxidase; 200 µg/mL, added: maltose): 50.4%
COc1cc(Cl)c(C(=O)N[C@@H](CN[C@H]2CC[C@@H](N)CC2)Cc2ccc(C#N)cc2)cc1-c1ccc(CN[C@H](C)c2ccc(C)cc2)o1  inhibition (PTGER3 (Homo sapiens, UniProt P43115); agonist response, antagonist; 10 µM; relative to: agonist control): -2%
CC(C)c1noc2ncc(C(=O)c3ccccc3O)cc12  inhibition (Kcnc1; ion current, whole-cell patch-clamp; 10 µM): 0.972%
COc1cc2ncnc(Nc3ccc(Oc4ccccc4)c(C)c3C)c2cc1OC  inhibition (Proto-oncogene tyrosine-protein kinase Src, N1 isoform (SRC, Homo sapiens, UniProt P12931); kinase activity, inhibitor; 1 µM): 67%
COc1ccc(C(=O)c2cc3c(-c4ccccc4)c(O)ccc3o2)cc1  inhibition (tubulin; [3H]colchicine binding, inhibitor; 1 µM, added: 5 µM [3H]colchicine): 39%
COc1cc2c(cc1OC)C(=O)C(CC1CCN(Cc3ccccc3)CC1)C2 (stereo not shown)  inhibition (HTR1D; radioligand binding; concentration not given, added: [3H]5-CT): 27.3%
CC1=NN(c2cc(Cl)ccc2Cl)C(=O)C1=NNc1ccc(S(N)(=O)=O)cc1  inhibition (bovine α-glucosidase; enzyme activity, inhibitor, glucose oxidase; 500 µg/mL, added: maltose): 38.5%
O=C(Nc1cccc2c(=O)cc(-c3nnn[nH]3)oc12)c1ccc(OCCCCc2ccccc2)cc1  inhibition (Volume-regulated anion channel subunit LRRC8C, part LRRC8A IL1 chimera (LRRC8C, Homo sapiens, UniProt Q8TDW0); ion current, inhibitor, whole-cell patch clamp; HCT LRRC8-/- cells, transfected; 10 µM, low ionic strength swelling, +100 mV): 72.4% and 80.6% and 89.9%
CC(=O)NCC(=O)O  log2 fold change (binding, MIDAS equilibrium dialysis LC-MS; A2AR-BRIL thermostabilized; concentration not given; relative to: no-protein control): -0.015
CN1CCN(c2cc(-c3ccncc3)c(-c3ccc4ccccc4c3)nn2)CC1  inhibition (PTGIR (Homo sapiens, UniProt P43119); antagonist, FLIPR; 10 µM): -4.3%
CC1=NN(c2cccc(C)c2)C(=O)C1=NNc1ccc(S(N)(=O)=O)cc1  inhibition (bovine α-glucosidase; enzyme activity, inhibitor, glucose oxidase; 200 µg/mL, added: maltose): 40.3%
Cc1c(-c2ccccc2)oc2ccccc2c1=O  inhibition (LRRC8A (Homo sapiens, UniProt Q8IWT6); endogenous hypotonicity-induced current; HEK293; 30 µM): 35.2 ± 3.6%
O=C(NO)c1ccc(CN2CCCCc3ccccc32)c(F)c1  inhibition (HTR1D; radioligand binding, PDSP radioligand binding; 10 µM): -33.9%
CCS(=O)(=O)c1nc(S(=O)(=O)c2ccccc2Cl)c(N2CCN(C)C(=O)[C@H]2C)s1  inhibition (HRH3 (Homo sapiens, UniProt Q9Y5N1); 10 µM): 2.43%
Cc1nn(-c2nc3c(F)cc(F)cc3s2)c(O)c1C(c1ccccc1C(F)(F)F)c1c(C)nn(-c2nc3c(F)cc(F)cc3s2)c1O  inhibition (CGAS; enzyme activity, inhibitor, pyrophosphatase-coupled; 200 µM, 1.5 h, added: HT-DNA): 86.6%
Nc1ncnc2c1ncn2[C@@H]1O[C@H](COP(=O)(O)CP(=O)(O)OP(=O)(O)O)[C@@H](O)[C@H]1O  calcium influx (P2X purinoceptor 1 (P2RX1, Homo sapiens, UniProt P51575, D170A); calcium influx; 10 µM; relative to: ionomycin response): 100% and 76.8% and 67% and 74.2%
CC(=O)c1ccc(-c2cccc(NC(=O)CCc3cccc4c3B(O)OC4)c2)cc1  inhibition (Cleavage and polyadenylation specificity factor subunit 3 (Cpsf3, Mus musculus, UniProt Q9QXK7); pre-mRNA cleavage; mouse nuclear extract; 1000 µM; relative to: DMSO): 93%
NC/C(=C\F)COc1cccc(Cn2c(=S)[nH]c(=O)c3[nH]cnc32)c1  inhibition (CACNA1C (Homo sapiens, UniProt Q13936); peak ion current, inhibitor, automated patch clamp; 100 µM, pulse 10): 32%
Cc1ncccc1OC[C@H]1CN(CCN2CCc3ccccc32)CCO1  inhibition (HTR1D; radioligand binding; concentration not given, added: [3H]5-CT): 23.4%
CC[C@]12CCCN3CCc4c([nH]c5ccccc45)[C@]31N(Cc1cn(Cc3ccccc3)nn1)C(=O)C2  inhibition (HCRTR2 (Homo sapiens, UniProt O43614); beta-arrestin recruitment, antagonist, PathHunter chemiluminescence; 20 µM, added: agonist at EC80): 80%
CC1=NCCNC(=O)C1=NNc1ccc(S(N)(=O)=O)cc1  inhibition (bovine α-glucosidase; enzyme activity, inhibitor, glucose oxidase; 50 µg/mL, added: maltose): 40.8%
Cc1cc2c(cc1N1C(=O)c3cccc4c(CCCO)ccc(c34)C1=O)n(C)c(=O)n2C (racemic)  inhibition (BRD7 (Homo sapiens, UniProt Q9NPI1); binding, BROMOscan binding; 1000 nM): 18%
[2H]c1cc(C)c(NC(=O)c2cnc(Nc3cc(N4CCCCC4)nc(C)n3)s2)c(Cl)c1  inhibition (FGR (Homo sapiens, UniProt P09769); 0.0001 µM): > 50%
c1cncc(OC[C@H]2CN(CCN3CCc4ccccc43)CCO2)c1  inhibition (HTR1D; radioligand binding; concentration not given, added: [3H]5-CT): 46.9%
CC(C)(NC(=O)O[C@@H]1CN2CCC1CC2)c1csc(-c2ccc(F)cc2)n1  inhibition (AHCY (Homo sapiens, UniProt P23526); 100 µM, counter-screen): no inhibition
CC(C)C[C@H](NC(=O)C[C@H](O)[C@H](CC(C)C)NC(=O)[C@H](Cc1c[nH]cn1)NC(=O)CNC(=O)[C@@H](NC(=O)[C@H](C)NC(=O)[C@H](Cc1c[nH]c2ccccc12)NC(=O)[C@H](CCC(N)=O)NC(=O)[C@@H](Cc1ccccc1)NC(=O)COCCOCCNC(=O)CCC(C(=O)O)N1CCN(CC(=O)O)CCN(CC(=O)O)CCN(CC(=O)O)CC1)C(C)C)C(N)=O (stereo partly shown) [lutetium-177 labelled]  tissue uptake (BALB/c nu/nu mice, small intestine; 50 pmol, 1 h, added: PA 300 µg): 1.6 ± 0.6 %ID/g
COc1cc(C2=CCCc3c2ccc(OC)c3OC(C)c2ccc([N+](=O)[O-])s2)cc(OC)c1OC (stereo not shown)  inhibition (tubulin; colchicine binding; 5 µM, added: 5.0 µM [3H]colchicine): 9.4 ± 2%
COc1cc(C(=O)NS(=O)(=O)c2ccccc2C)ccc1Cc1cn(C)c2ccc(NC(=O)OC3CCCC3)cc12  inhibition (Volume-regulated anion channel subunit LRRC8C, part LRRC8A IL1 chimera (LRRC8C, Homo sapiens, UniProt Q8TDW0, E6A); ion current, inhibitor, whole-cell patch clamp; HCT LRRC8-/- cells; 10 µM, +100 mV): 94.1% and 87% and 92.8% and 95.6% and 92.9% and 95.3%
COc1ccc2c(c1)C(=O)N(CCN1CCN(c3ccccc3OC)CC1)C2  inhibition (HTR1D; radioligand binding; concentration not given, added: [3H]5-CT): 93.8%
CN(C(=O)n1cnc(-c2ccc[n+]([O-])c2)c1)C1CCCCC1  inhibition (Gabbr1 (Rattus norvegicus, UniProt Q9Z0U4); 10 µM): 3.69%
Cc1ccc(C(=O)Nc2ccc3ccccc3c2)o1  inhibition (Kcnc1; ion current, inhibitor, whole-cell patch clamp; 10 µM): 14.9% and 16.4% and 8.7% and 12.7% and 23.5%
COc1cc(-c2cc(C(C)=O)n3ccccc23)c(OC)cc1Cn1ccnc1  inhibition (CREBBP (Homo sapiens, UniProt Q92793); 1 µM): 35.4%
Clc1cccc(OC[C@@H]2CN(CCN3CCc4ccccc43)CCO2)c1  inhibition (HTR1D; radioligand binding; concentration not given, added: [3H]5-CT): 74%
CC1=NN(c2ccccc2)C(=O)C1=NNc1ccc(S(N)(=O)=O)cc1  inhibition (bovine α-glucosidase; enzyme activity, inhibitor, glucose oxidase; 100 µg/mL, added: maltose): 38%
COc1cc(C2=CCCc3c2ccc(OC)c3OCc2cnc([N+](=O)[O-])n2C)cc(OC)c1OC  inhibition (tubulin; colchicine binding; 5 µM, added: 5.0 µM [3H]colchicine): 9.6 ± 1%
O=c1c(O)cc([C@H]2Oc3cc(O)cc(O)c3C[C@H]2O)cc2c([C@H]3Oc4cc(O)cc(O)c4C[C@H]3O)cc(O)c(O)c12  inhibition (alpha-amylase; enzyme activity, inhibitor, DNS method; 1 µg/mL, added: soluble starch): 3.65%
Cc1nn(-c2nc3ccc(Cl)c(Cl)c3[nH]2)c(O)c1C1OC(=O)c2ccccc21 (stereo not shown)  inhibition (Cgas (Mus musculus, UniProt Q8C6L5); enzyme activity, inhibitor, pyrophosphatase-coupled; 1 µM, 1.5 h, mouse enzyme): 97.6%
Cn1cc(-c2ccc(-c3cncc(Cl)c3N3CCC4(CCNC4=O)CC3)cc2)cn1  log2 fold change (COLO 205; gene expression, microarray, refers to: KITLG mRNA; concentration not given, 6 h; relative to: untreated cells): 2.53
CC1=NNC(=S)NC(=O)C1/N=N/c1ccc(S(N)(=O)=O)cc1 (stereo not shown)  inhibition (bovine α-glucosidase; enzyme activity, inhibitor, glucose oxidase; 50 µg/mL, added: maltose): 30%
O=C(CN1CCO[C@H](COc2cccnc2)C1)N1CCc2ccccc21  inhibition (HTR1D; radioligand binding; concentration not given, added: [3H]5-CT): -6.8%
CC1=NOC(=O)C1=NNc1ccc(S(N)(=O)=O)cc1  inhibition (bovine α-glucosidase; enzyme activity, inhibitor, glucose oxidase; 10 µg/mL, added: maltose): 33.075 ± 0.0014%
Cc1nn(-c2nc3c(F)cc(F)cc3s2)c(O)c1C(c1ccc(C(F)(F)F)cc1)c1c(C)nn(-c2nc3c(F)cc(F)cc3s2)c1O  inhibition (CGAS; enzyme activity, inhibitor, pyrophosphatase-coupled; 25 µM, 1.5 h, added: HT-DNA): 84.7%
CC1=NN(c2ccc(F)cc2)C(=O)C1=NNc1ccc(S(N)(=O)=O)cc1  inhibition (bovine α-glucosidase; enzyme activity, inhibitor, glucose oxidase; 100 µg/mL, added: maltose): 39%
Clc1cncc(OC[C@@H]2CN(CCN3CCc4ccccc43)CCO2)c1  inhibition (HTR1D; radioligand binding; concentration not given, added: [3H]5-CT): 45.3%

For quick reference, copied from above:
Cc1nn(-c2nc3c(F)cc(F)cc3s2)c(O)c1C(c1ccc(C(F)(F)F)cc1)c1c(C)nn(-c2nc3c(F)cc(F)cc3s2)c1O  inhibition (CGAS; enzyme activity, inhibitor, pyrophosphatase-coupled; 25 µM, 1.5 h, added: HT-DNA): 84.7%
NC/C(=C\F)COc1cccc(Cn2c(=S)[nH]c(=O)c3[nH]cnc32)c1  inhibition (CACNA1C (Homo sapiens, UniProt Q13936); peak ion current, inhibitor, automated patch clamp; 100 µM, pulse 10): 32%
[2H]c1cc(C)c(NC(=O)c2cnc(Nc3cc(N4CCCCC4)nc(C)n3)s2)c(Cl)c1  inhibition (FGR (Homo sapiens, UniProt P09769); 0.0001 µM): > 50%
COc1ccc(C(=O)c2cc3c(-c4ccccc4)c(O)ccc3o2)cc1  inhibition (tubulin; [3H]colchicine binding, inhibitor; 1 µM, added: 5 µM [3H]colchicine): 39%
COc1cc(Cl)c(C(=O)N[C@@H](CN[C@H]2CC[C@@H](N)CC2)Cc2ccc(C#N)cc2)cc1-c1ccc(CN[C@H](C)c2ccc(C)cc2)o1  inhibition (PTGER3 (Homo sapiens, UniProt P43115); agonist response, antagonist; 10 µM; relative to: agonist control): -2%
